Measured values from different studies.
Lines come from different studies, so protocols differ. ± marks the error that the study gave.

Substance	target or system	test	system	setting	how to read	quantity	value
Cc1c(C)c2c(c(C)c1O)CCC(C)(C(=O)NN=C1C(=O)Nc3ccccc31)O2 (stereo not shown)		seizure protection	male CF-1 mice	intraperitoneal, 4 h, together with: pentylenetetrazole 60 mg/kg subcutaneous		minimal effective dose	300 mg/kg
CN(C)CCc1cc2cc(c1)CNC(=O)c1coc(n1)-c1coc(n1)-c1cccc(n1)-c1nc(co1)-c1nc(co1)C(=O)NC2	human telomeric quadruplex d(TTAGGG)4	UV melting		20 µM, pH 7.5, together with: 50 mM K+	reference: DNA without compound	melting temperature shift	35.9 °C
CC(C)(N)C(=O)O	Ehrlich ascites cells, mouse	methionine uptake, competitive inhibitor		together with: Na+ 107 mEq/L		Ki	2000 µM
CC(=O)N[C@@H](CC(N)=O)C(=O)NCC(=O)N[C@@H](CCCCN)C(=O)N[C@@H](C)C(N)=O	Asn-Gly peptide isomerisation to succinimide	1H NMR time course		pH 7.4, 37 °C		rate constant k1	0.0362 h⁻¹
C[C@H]1c2cccc(O)c2C(=O)C2=C(O)[C@]3(O)C(=O)C(C(N)=O)=C(O)[C@@H](N(C)C)[C@@H]3[C@@H](O)[C@@H]21	Staphylococcus aureus	checkerboard broth microdilution	methicillin-susceptible isolate 56-96	together with: magainin II		FIC index	0.75
O=C1CCC(=O)C2(CCCCC2)N1	human erythrocytes	hypotonicity-induced hemolysis		600 µg/mL, 1 h		inhibition	73.2%
COc1c(C)c(C)c2c(c1C)CCC(C)(C(=O)NN=C1C(=O)Nc3ccccc31)O2 (stereo not shown)		seizure protection	male CF-1 mice	intraperitoneal, 4 h, together with: maximal electroshock		minimal effective dose	300 mg/kg
CCCOC(=O)c1ccc(O)cc1	cysteine peptide Ac-RFAACAA-COOH	peptide depletion, DPRA RapidFire-MS/MS		24 h, pH 7.5, room temperature, together with: 5.0 µM cysteine peptide		IC50	inactive
IINFEKL	ERAP1 human wild type	activator	peptide	100 µM, pH 8.0, 27 °C, together with: L-AMC substrate		Hill coefficient	2.6
CO/N=C(\C(=O)N[C@@H]1C(=O)N2C(C(=O)O)=C(CSc3nc(=O)c(=O)[nH]n3C)CS[C@H]12)c1csc(N)n1	Staphylococcus aureus	checkerboard broth microdilution	ATCC 25923	together with: ranalexin		FIC index	0.75
O=C1OC(=O)c2ccccc21	cysteine peptide Ac-RFAACAA-COOH	DPRA RapidFire-MS/MS		24 h, pH 7.5, together with: 5.0 µM cysteine peptide		peptide depletion	inactive
Cc1c(C)c2c(c(C)c1OCc1ccccc1)CCC(C)(C(=O)NN=C1C(=O)Nc3ccc(Br)cc31)O2 (stereo not shown)		seizure protection	male CF-1 mice	intraperitoneal, 4 h, together with: pentylenetetrazole 60 mg/kg subcutaneous		minimal effective dose	100 mg/kg
SIYNFEKL	OT-I CD8+ T cells	item: IL-2, IFN-gamma, TNF-alpha	peptide	primed 5 d, OVA257 100 ng/mL restimulation, together with: 20 ng/mL TGF-beta1 from day 2		double cytokine producers	17.6%
O=C(O)c1ccc2c(c1)C(=O)OC2=O	cysteine peptide Ac-RFAACAA-COOH	peptide depletion, DPRA RapidFire-MS/MS		24 h, pH 7.5, room temperature, together with: 5.0 µM cysteine peptide		IC50	inactive
NC1=NC(=S)NC12CCCCC2	human erythrocytes	hypotonicity-induced hemolysis		800 µg/mL, 1 h		inhibition	96%
Cn1sc(Cl)cc1=O	cysteine peptide Ac-RFAACAA-COOH	peptide depletion, DPRA RapidFire-MS/MS		24 h, pH 7.5, room temperature, together with: 5.0 µM cysteine peptide		IC50	14.4 µM
Cc1c(C)c2c(c(C)c1OCc1ccccc1)CCC(C)(C(=O)NN=C1C(=O)Nc3ccccc31)O2 (stereo not shown)		seizure protection	male CF-1 mice	intraperitoneal, 0.5 h, together with: maximal electroshock		minimal effective dose	> 300 mg/kg
CCCCCCCC(=O)O	cysteine peptide Ac-RFAACAA-COOH	DPRA RapidFire-MS/MS		24 h, pH 7.5, together with: 5.0 µM cysteine peptide		maximal peptide depletion	-25.4%
Cc1c(C)c2c(c(C)c1OCc1ccccc1)CCC(C)(C(=O)NN=C1C(=O)Nc3ccc(F)cc31)O2 (stereo not shown)		seizure protection	male CF-1 mice	intraperitoneal, 0.5 h, together with: pentylenetetrazole 60 mg/kg subcutaneous		minimal effective dose	300 mg/kg
O=C(OOC(=O)c1ccccc1)c1ccccc1	cysteine peptide Ac-RFAACAA-COOH	peptide depletion, DPRA RapidFire-MS/MS		24 h, pH 7.5, room temperature, together with: 5.0 µM cysteine peptide		IC50	95.3 µM
SIIVFEKL	OT-I CD8+ T cells	item: IL-2, IFN-gamma, TNF-alpha	peptide	primed 5 d, OVA257 100 ng/mL restimulation, together with: no TGF-beta1		double cytokine producers	7.26%
CC(=O)C(C)=O	cysteine peptide Ac-RFAACAA-COOH	peptide depletion, DPRA RapidFire-MS/MS		24 h, pH 7.5, room temperature, together with: 5.0 µM cysteine peptide		IC50	41.1 µM
COc1ccc2c(c1)c(CC(=O)O)c(C)n2C(=O)c1ccc(Cl)cc1	human erythrocytes	hypotonicity-induced hemolysis		100 µg/mL, 1 h		inhibition	88%
CCCCCCCCCCCCOC(=O)c1cc(O)c(O)c(O)c1	cysteine peptide Ac-RFAACAA-COOH	DPRA RapidFire-MS/MS		24 h, pH 7.5, together with: 5.0 µM cysteine peptide		peptide depletion	inactive
IINFEKE	ERAP1 human L734R	activator	peptide	100 µM, pH 8.0, 27 °C, together with: L-AMC substrate		Vmax of L-AMC hydrolysis	264 ± 2 nmol/min/µg

For quick reference, copied from above:
Substance	target or system	test	system	setting	how to read	quantity	value
NC1=NC(=S)NC12CCCCC2	human erythrocytes	hypotonicity-induced hemolysis		800 µg/mL, 1 h		inhibition	96%
Cn1sc(Cl)cc1=O	cysteine peptide Ac-RFAACAA-COOH	peptide depletion, DPRA RapidFire-MS/MS		24 h, pH 7.5, room temperature, together with: 5.0 µM cysteine peptide		IC50	14.4 µM
